Published values pooled from the literature.
Numbered parts are unrelated; each lists some results of a single study.

Study 1 — method: RNA Bind-n-Seq; molecule type: RNA; medium: in vitro; concentration: 365 nM; relative to: no-protein control; direction: higher = stronger binding; quantity: RBNS enrichment (R)
Target: RNA binding protein fox-1 homolog 2, RRM domain, GST-SBP tag (RBFOX2, Homo sapiens, UniProt O43251-10, residues 100-194)
Notes: natural RNA segment, single round, ends assumed
All sequences stand within: GGGAGUUCUACAGUCCGACGAUC … UGGAAUUCUCGGGUGCCAA
Construct (chain): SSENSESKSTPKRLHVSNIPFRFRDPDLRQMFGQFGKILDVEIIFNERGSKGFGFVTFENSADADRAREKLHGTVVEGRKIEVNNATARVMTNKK
UGUCUCUCCCAGUACAUCCCCGGAUUGGUGUGGGUAGAUAGGCCAACGUAUGGUGAUCUCCCCUAGUGUCUGGAUGGACUUAAUGCUCAUCCCUGACCAGAGACUAGGGU: 0.339
UGCUGACAGCCACUUCCGUGUCCCCUUUCUGCUCGAAGGAUGAGGAUACCUUGGGCAUCAGCUCCCCGGCUGCCCUUUUCACCCACCUGCUGGAGGGGGGUGGUGAGCCA: 0.274
UUUUGGUAAUAUGAAGCUUGAAUACUGGUAACAGUGAUGCAAUAUACGCAAGCUGCACAACCUGUAUAUUGUAUGCAUUGCUGCGUGGAGGCUGUUUAUUUCAACCUUUU: 0.745
ACAUAUAUAAUAUACCCUUACAUUAUGUAUGAGGGAUUUUUUUAAAUUAUAUUGAAAUGCUGCCCUAGAAGUACAAUAGGAAGGCUAAAUAAUAAUAACCUGUUUUCUGG: 0.522
ACACGUUUUCAUGAAGGAAUAACUAAGUUAAAGUGAAAAUGGUUGUGAUUUACAGAAAUAAAAUCCCAGUGUCCACUCAAUGCUGGUCUGACUCAGAUCCAGUUGGGUGG: 0.284
AAAAGCCGAAAUCAAAUGGUCAAGGCUGCUGAGGCUAAACUCCAGCAGAGUUUGCAGCGCUGAUGUGUGAGCUGGCAGAGCAGAAUCACUCUUCAAGCGCUUGCUCUUAC: 0.528
CAAAUGGAGAGGAAGGGGUCCCUGUGGAGGACCCAACCACAGAAUCUGAGGUGUUCAGAAUCUGACCCUCUUGGCAGAGAUCUGUCUGGGAAAUUUAACCAGGCAGUGGA: 0.434
UGGGCUAAGGUGGACAGGCUGUGUAAGUUUUAUCAGCUAGCAGACUGAGUGUGGGCUGGAAUUGUUCUGGUGUUGGGAGGGUCAGCUGGGAGUGUCCAUCUUUAGGGAAG: 0.918

Study 2 — method: protein binding microarray; molecule type: double-stranded DNA, one strand shown; medium: in vitro; concentration: not given; relative to: not given; direction: higher = stronger binding; quantity: E-score
Target: Histone acetyltransferase KAT6A, winged helix 1, GST fusion (KAT6A, Homo sapiens, UniProt Q92794, residues 1-85)
Notes: 8-mer, flanks averaged, mean of 2 arrays, mostly near background
Target sequence (chain): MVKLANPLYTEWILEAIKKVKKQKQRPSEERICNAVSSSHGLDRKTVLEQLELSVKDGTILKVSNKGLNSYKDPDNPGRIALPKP
CTGGCATC: -0.196
AGTGCACC: 0.0259
CATCAGGC: -0.0879
GTAGGAGA: -0.099
GATGGCGA: 0.0143
ACCAGGAT: -0.117
AAGATAAG: -0.211
CTGCCAAG: -0.209
GATGCTAC: 0.0237
CGTACCTC: -0.0294
CTCAACAA: -0.196
AATACATT: -0.142
ACTCGGTA: -0.102
GGGTGGAA: -0.0723
GTACGCAC: 0.254
GCCACGGA: 0.17
ATATAAAG: -0.109
AAGTAATA: 0.033
CAATCACA: -0.216
GCATATGC: 0.0624
CTCCGGTA: 0.0824
ACAACTTA: -0.172
GCAACCCC: 0.198
TCACAAAA: -0.177
GCTATCGA: 0.0793

Study 3 — method: Spec-seq; molecule type: double-stranded DNA, one strand shown; medium: in vitro; concentration: not given; notes: whole probe, mean of replicates; relative to: not given; direction: lower = stronger binding; quantity: relative binding energy; all sequences stand within: GAGTCGTCTCGTCAGCAC … CCGTAGAGCACTCAGGTC
Target: Transcription factor SOX-2, HMG box (Sox2, Mus musculus, UniProt P48432, residues 41-119)
UniProt P48432, sequence (41-119, looked up): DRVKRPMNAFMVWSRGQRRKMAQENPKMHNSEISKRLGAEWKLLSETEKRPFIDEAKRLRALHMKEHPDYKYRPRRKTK
CATTCGG: 0.0176 ln ratio
CATTCTG: -0.553 ln ratio
CATATTA: -0.157 ln ratio
CATCGCG: 0.599 ln ratio
CATGCGA: 0.515 ln ratio
CATATCC: 0.594 ln ratio
ACCCGTT: 0.567 ln ratio
CATAGAG: -1.01 ln ratio
CATCACG: 0.685 ln ratio
CATGTTC: 0.494 ln ratio
ACGAGTT: 0.648 ln ratio
GACCGTT: 1.36 ln ratio
CATACGG: -0.104 ln ratio
CATCTTA: 0.72 ln ratio
CATCAAT: -0.0783 ln ratio
GTGTGTT: 0.567 ln ratio
CATCCTT: 0.696 ln ratio
TGTCGTT: 0.605 ln ratio
CATAGTC: -0.904 ln ratio
TTTCGTT: 0.618 ln ratio
CATTTGT: -1.49 ln ratio
CATACGC: 0.227 ln ratio
CCTGGTT: 0.96 ln ratio
GATTGTT: -2.02 ln ratio
CATCTAT: 0.358 ln ratio

Study 4 — method: protein-binding microarray; molecule type: double-stranded DNA, one strand shown; medium: in vitro; concentration: 0.8 µM; notes: whole 60-bp probe, no competitor; direction: higher = stronger binding; quantity: fluorescence intensity; all sequences stand within: … GTCTTGATTCGCTTGACGCTGCTG
Target: Centromere-binding protein 1, full length, N-terminal tag (CBF1, Saccharomyces cerevisiae, UniProt P17106, residues 1-351)
UniProt P17106, sequence (whole entry, looked up): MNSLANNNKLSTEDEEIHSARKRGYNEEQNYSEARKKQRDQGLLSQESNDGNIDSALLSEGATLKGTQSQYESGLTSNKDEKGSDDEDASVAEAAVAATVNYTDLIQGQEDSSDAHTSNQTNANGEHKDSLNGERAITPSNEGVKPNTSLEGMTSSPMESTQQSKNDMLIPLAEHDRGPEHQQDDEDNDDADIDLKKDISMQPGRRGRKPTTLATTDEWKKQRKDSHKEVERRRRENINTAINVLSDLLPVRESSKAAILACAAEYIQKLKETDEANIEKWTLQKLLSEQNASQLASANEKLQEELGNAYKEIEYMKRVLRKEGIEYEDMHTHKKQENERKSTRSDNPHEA
CTAAGCAAGAGGTGACACATAAACATAGTTTTCTTC: 504 a.u.
CTAAGGCTTTGCATACACGTGACTTATATTTGGTTC: 17500 a.u.
GAATCTTATATATTCTACGTGGGAGCTCGAAAATAG: 487 a.u.
CCTAACTACTATAGTCACATTAGATAGCTTCGTACA: 543 a.u.
GAAGCAGTGAAACCTCGTGGGAGAAAGCCGGTTTAG: 549 a.u.
GAATGGCTTCCCGATCACGTGCTACAACCTCATTAG: 18500 a.u.
GAATATCATATTTTCCACGTGAGGGAGCTCAAATAG: 2440 a.u.
GAACTTTATCTCCGTCAGATGAGAAAGGTTTACTAG: 534 a.u.
CTAAATTTCTATCTTCACGCGCTTTCTCACTAATTC: 552 a.u.
GAATTTATCATTTTCCTGATGACCTTTGACTGCTAG: 538 a.u.
GAATAAAAAAAAAGCCATGTGAATCAAAAAAAGTAG: 899 a.u.
GAATAAAGGTAATATCATGTGATTAAGAGTGAATAG: 3210 a.u.

For quick reference, copied from above (study 3):
CATTTGT: -1.49 ln ratio
TGTCGTT: 0.605 ln ratio
CATACGG: -0.104 ln ratio
GATTGTT: -2.02 ln ratio
GACCGTT: 1.36 ln ratio
CATGTTC: 0.494 ln ratio
CCTGGTT: 0.96 ln ratio
CATCGCG: 0.599 ln ratio
CATCTTA: 0.72 ln ratio
